Assay results collected from several papers.
Every numbered part comes from another study and shows a few of its results, in no order. Changes are numbered by the printed parent chain.
Sequence of UniProt Q5BJF2 (whole entry, looked up): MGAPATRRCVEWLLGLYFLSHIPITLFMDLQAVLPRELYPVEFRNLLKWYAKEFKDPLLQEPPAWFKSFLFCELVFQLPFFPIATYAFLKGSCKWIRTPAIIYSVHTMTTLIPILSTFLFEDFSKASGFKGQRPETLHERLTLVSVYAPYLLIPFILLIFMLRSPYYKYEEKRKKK

Sample 1
Target: vanadate, free oxyanion
Method: microfluidic competitive inhibition
Medium: in vitro, cell-free expressed
Concentration: not given
Notes: derived from inhibition constants, unchanged parent 676 nM
Reading: lower = stronger binding
Starting sequence: PafA, mature enzyme, eGFP fusion (Elizabethkingia meningoseptica, UniProt Q9KJX5); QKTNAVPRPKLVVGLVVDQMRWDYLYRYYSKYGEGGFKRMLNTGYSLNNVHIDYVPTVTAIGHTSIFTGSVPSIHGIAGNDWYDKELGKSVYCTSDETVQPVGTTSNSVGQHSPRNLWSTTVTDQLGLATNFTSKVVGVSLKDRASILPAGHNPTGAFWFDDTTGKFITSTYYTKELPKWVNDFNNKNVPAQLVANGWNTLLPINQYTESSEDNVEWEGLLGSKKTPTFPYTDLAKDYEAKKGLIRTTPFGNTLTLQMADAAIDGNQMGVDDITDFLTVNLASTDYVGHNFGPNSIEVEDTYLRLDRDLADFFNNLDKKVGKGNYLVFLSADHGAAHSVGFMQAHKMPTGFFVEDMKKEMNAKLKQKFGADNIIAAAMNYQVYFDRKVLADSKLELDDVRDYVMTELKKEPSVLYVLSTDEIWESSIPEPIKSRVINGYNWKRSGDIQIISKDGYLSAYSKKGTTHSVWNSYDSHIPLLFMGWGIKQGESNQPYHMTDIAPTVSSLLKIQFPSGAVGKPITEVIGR
Under “oxyanion analog dissociation constant”, `R434G` is recorded as 1.42 µM.
`S412G` — result for “oxyanion analog dissociation constant”: 895 nM.
`S418G` — result for “oxyanion analog dissociation constant”: 728 nM.
`A145G` — result for “oxyanion analog dissociation constant”: 3.81 µM.
`Y92G`: “oxyanion analog dissociation constant” 9.39 µM.
`K452G` — result for “oxyanion analog dissociation constant”: 674 nM.
`F229G` — result for “oxyanion analog dissociation constant”: 596 nM.
`V16A` — result for “oxyanion analog dissociation constant”: 504 nM.

Sample 2
Target: CCND3, cyclin fold, Cln2 fusion (human)
Method: yeast growth competition, sequencing
Medium: yeast
Notes: weak parent motif
Reference: not given
Reading: higher = stronger binding
Starting sequence: viral docking peptide; KGVKRKLFAEDSS
`R5Y`: “normalised enrichment score” 0.0186.
`L7Q` — result for “normalised enrichment score”: 0.372.
Under “normalised enrichment score”, `D11G` is recorded as 0.139.
`L7V` — result for “normalised enrichment score”: 0.136.
`L7H`: “normalised enrichment score” 0.16.
For `K4R`, “normalised enrichment score” read 0.545.
For `V3M`, “normalised enrichment score” read -0.147.
`R5I`: “normalised enrichment score” 0.116.

Sample 3
Target: UDP-N-acetylglucosamine--peptide N-acetylglucosaminyltransferase 110 kDa subunit (OGT, Homo sapiens, UniProt O15294)
Sequence of UniProt O15294 (whole entry, looked up): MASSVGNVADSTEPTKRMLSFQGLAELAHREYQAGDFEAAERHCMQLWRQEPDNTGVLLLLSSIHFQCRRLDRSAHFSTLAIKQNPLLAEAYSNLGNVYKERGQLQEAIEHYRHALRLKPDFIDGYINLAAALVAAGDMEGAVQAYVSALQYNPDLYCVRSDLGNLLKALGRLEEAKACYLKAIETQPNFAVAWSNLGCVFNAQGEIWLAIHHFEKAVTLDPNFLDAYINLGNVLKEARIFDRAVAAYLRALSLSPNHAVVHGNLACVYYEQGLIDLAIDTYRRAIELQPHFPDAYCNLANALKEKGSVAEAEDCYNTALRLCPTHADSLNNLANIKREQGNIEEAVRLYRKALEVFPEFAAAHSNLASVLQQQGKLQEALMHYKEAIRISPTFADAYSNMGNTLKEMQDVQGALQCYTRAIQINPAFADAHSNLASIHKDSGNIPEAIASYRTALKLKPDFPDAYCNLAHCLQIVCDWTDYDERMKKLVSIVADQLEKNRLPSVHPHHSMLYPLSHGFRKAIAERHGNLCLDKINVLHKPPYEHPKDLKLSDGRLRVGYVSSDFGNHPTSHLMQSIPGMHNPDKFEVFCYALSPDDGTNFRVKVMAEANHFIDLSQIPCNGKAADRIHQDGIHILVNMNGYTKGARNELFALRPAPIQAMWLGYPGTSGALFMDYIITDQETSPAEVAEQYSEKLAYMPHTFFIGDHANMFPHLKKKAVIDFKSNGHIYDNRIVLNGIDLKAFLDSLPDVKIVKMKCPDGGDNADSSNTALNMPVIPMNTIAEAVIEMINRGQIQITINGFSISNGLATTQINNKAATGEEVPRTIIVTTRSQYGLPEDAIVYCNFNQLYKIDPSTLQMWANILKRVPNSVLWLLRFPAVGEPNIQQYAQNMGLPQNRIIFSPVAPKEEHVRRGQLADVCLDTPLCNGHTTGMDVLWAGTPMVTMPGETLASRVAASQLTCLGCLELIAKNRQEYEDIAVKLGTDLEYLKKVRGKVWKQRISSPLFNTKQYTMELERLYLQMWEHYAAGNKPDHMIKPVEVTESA
Observed: binding
Method: phage display NGS
Form: peptide
Concentration: concentration not given
Added: OGT 1 µg
Reference: input library
`TAPFYPPAYDIQVFK` — result for “enrichment fold change”: 0.434.
`TAPFYPPAYAIQVFK` — result for “enrichment fold change”: 1.57.
Under “enrichment fold change”, `TAPFYPPAYEIQVFK` is recorded as 1.25.

Single results of other studies
CCOC(=O)Nc1ccc(NCc2ccc(F)cc2)cc1N gave a viability of 82.1% (HaCaT; 100 µM, 36 h).
CCOc1ccc(N2C(=O)N=C(O)C3(Cc4c(ccc5ccccc45)N(C)C3)C2=O)cc1 (centres unmarked) has a remaining compound of 44.1% (human, microsomes or S9; 2 µM, 0.5 h).
CNC(=O)c1cc(C(=O)NC2CC2)cn(Cc2ccccc2)c1=O gave an inhibition of 7.83% (TMEM97 (Homo sapiens, UniProt Q5BJF2); binding, radioligand binding; 10 µM).
For CN1C[C@H](C(=O)N[C@]2(C)O[C@@]3(O)[C@@H]4CCCN4C(=O)[C@H](Cc4ccccc4)N3C2=O)C=C2c3cccc4[nH]cc(c34)C[C@H]21, the viability was 54.4% (HaCaT; 100 µM, 36 h).

Repeated from above (sample 1):
`Y92G`: “oxyanion analog dissociation constant” 9.39 µM.
`K452G` — result for “oxyanion analog dissociation constant”: 674 nM.
